Experimental data collected from several papers.
A part holds a random share of what one study measured.
UniProt P30291, sequence (whole entry, looked up): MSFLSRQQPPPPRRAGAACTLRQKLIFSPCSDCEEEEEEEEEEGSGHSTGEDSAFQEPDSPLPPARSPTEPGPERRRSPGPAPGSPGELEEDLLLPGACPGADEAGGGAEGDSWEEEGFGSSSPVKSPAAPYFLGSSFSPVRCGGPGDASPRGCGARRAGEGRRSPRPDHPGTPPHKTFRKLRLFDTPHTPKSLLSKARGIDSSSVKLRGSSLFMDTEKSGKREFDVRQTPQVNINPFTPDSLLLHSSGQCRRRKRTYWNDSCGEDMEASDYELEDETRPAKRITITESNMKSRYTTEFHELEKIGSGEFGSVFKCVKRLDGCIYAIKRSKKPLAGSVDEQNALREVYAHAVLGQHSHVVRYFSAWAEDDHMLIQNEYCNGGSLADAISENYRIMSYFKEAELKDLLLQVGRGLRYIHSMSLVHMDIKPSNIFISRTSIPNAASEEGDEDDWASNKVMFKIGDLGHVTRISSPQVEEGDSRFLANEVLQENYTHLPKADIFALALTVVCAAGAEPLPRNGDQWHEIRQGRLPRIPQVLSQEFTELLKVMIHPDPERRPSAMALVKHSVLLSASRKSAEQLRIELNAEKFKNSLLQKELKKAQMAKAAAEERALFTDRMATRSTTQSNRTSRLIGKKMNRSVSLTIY
UniProt O75676, sequence (whole entry, looked up): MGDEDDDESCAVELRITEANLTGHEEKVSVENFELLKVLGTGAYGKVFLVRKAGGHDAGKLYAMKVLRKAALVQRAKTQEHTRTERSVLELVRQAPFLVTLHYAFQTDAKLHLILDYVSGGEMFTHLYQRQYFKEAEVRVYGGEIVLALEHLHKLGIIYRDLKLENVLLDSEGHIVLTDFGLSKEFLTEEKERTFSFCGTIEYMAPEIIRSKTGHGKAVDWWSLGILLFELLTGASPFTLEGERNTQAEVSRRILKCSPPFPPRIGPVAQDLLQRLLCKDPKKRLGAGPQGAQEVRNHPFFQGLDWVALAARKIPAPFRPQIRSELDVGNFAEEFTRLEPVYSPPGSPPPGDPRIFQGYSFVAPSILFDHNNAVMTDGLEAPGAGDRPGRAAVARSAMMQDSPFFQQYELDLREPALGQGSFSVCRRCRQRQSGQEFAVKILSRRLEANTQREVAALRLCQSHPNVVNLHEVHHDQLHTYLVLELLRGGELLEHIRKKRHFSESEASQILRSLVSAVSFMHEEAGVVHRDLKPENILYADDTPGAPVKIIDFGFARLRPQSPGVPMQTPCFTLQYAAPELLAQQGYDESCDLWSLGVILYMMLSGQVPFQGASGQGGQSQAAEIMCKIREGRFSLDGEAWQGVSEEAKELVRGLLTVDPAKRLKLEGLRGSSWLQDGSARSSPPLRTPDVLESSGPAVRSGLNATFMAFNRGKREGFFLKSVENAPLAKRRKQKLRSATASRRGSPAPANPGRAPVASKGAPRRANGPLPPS
UniProt P78368, sequence (whole entry, looked up): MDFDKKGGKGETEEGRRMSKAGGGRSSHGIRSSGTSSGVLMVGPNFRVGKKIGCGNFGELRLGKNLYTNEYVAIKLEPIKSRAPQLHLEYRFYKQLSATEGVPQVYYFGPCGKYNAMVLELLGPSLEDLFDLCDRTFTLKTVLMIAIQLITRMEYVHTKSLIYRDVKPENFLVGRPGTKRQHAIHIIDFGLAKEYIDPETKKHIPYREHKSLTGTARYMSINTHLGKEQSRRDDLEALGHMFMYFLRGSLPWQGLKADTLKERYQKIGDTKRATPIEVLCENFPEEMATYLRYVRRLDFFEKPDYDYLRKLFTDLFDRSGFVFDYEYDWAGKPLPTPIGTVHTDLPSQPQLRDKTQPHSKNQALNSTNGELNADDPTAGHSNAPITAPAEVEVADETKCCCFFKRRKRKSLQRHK
UniProt Q9NSY1, sequence (whole entry, looked up): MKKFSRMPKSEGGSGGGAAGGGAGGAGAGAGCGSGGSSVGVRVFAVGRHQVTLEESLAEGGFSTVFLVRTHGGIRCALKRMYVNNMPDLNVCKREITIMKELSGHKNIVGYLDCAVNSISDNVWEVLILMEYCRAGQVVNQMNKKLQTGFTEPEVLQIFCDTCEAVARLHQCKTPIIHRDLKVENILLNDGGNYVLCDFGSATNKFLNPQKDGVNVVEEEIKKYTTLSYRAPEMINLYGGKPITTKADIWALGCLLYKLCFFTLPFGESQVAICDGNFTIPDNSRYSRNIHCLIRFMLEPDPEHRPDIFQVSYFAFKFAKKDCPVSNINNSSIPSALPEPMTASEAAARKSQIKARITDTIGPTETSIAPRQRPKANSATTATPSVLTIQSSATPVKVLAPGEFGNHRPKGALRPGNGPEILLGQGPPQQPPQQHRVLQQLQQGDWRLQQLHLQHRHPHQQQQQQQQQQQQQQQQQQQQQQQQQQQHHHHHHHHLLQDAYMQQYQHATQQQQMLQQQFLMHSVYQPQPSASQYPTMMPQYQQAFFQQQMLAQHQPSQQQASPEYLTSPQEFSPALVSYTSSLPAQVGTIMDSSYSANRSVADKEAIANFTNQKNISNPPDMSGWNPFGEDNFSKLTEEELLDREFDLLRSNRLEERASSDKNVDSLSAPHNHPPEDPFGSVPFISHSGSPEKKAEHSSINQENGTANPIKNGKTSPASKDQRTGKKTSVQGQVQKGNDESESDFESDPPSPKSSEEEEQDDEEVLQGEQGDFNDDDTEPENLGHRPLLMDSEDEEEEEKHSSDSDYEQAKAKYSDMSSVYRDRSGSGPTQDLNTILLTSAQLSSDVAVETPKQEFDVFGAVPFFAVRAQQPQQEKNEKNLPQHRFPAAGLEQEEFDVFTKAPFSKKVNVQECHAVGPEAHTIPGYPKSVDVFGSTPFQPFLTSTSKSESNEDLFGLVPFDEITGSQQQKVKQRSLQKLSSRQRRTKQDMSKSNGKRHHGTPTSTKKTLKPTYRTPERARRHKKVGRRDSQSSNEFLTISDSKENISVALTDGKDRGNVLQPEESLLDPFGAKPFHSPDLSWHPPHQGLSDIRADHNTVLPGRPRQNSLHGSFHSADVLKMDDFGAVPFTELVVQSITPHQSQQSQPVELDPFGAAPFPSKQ
UniProt Q04912, sequence (whole entry, looked up): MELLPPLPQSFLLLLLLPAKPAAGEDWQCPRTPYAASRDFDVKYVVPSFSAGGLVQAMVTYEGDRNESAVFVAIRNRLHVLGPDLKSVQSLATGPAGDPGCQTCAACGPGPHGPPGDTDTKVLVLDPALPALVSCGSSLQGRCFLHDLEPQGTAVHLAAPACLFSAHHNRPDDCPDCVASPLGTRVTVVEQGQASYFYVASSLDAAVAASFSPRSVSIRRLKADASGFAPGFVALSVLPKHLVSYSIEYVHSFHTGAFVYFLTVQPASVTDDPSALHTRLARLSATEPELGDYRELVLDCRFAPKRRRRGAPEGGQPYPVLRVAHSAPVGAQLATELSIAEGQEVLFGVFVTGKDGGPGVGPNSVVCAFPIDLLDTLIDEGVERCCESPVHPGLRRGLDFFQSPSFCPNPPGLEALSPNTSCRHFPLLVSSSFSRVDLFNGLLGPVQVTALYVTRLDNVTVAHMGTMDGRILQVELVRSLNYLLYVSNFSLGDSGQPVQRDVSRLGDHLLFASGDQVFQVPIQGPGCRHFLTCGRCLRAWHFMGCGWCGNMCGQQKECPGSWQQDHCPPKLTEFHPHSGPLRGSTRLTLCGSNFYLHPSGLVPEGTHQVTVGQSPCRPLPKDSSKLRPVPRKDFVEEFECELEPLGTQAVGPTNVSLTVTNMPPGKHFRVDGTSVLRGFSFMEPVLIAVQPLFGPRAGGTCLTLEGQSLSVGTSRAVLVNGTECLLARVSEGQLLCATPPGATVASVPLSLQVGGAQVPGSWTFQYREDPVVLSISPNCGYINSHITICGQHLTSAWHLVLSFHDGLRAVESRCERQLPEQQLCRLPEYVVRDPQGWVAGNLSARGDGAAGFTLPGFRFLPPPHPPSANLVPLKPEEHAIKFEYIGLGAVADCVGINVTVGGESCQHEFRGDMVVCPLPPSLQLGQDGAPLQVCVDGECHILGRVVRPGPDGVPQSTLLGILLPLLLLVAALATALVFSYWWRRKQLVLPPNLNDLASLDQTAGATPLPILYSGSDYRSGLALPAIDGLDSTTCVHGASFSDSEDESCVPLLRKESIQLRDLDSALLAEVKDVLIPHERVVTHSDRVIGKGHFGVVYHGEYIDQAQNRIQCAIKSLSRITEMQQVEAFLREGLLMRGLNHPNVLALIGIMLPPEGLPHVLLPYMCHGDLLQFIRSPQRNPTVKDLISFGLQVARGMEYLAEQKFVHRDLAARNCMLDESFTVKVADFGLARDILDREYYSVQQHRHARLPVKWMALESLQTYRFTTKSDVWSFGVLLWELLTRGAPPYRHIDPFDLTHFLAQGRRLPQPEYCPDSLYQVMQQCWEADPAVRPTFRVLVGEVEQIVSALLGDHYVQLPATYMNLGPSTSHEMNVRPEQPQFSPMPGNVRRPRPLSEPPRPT
UniProt P06239, sequence (whole entry, looked up): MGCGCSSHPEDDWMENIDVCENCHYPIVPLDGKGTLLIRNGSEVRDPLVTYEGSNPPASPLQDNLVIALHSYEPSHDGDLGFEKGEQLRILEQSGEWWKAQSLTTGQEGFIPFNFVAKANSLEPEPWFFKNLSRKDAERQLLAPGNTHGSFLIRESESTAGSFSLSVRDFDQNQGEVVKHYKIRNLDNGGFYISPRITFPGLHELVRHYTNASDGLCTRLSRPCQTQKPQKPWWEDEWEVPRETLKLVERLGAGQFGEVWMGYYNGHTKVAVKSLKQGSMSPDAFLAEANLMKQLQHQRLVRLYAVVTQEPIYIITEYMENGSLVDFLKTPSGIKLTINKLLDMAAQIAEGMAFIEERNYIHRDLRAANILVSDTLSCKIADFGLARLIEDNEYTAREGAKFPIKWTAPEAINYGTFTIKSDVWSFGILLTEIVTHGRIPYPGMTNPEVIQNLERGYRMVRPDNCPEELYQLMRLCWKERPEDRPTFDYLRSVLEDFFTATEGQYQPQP

Study 1 — cell line: mouse MPNST tumor cells; method: high-content immunofluorescence imaging; item: nuclear SOX9; concentration: 10 µM; time: 12 h; notes: mean of 2 replicates; baseline: DMSO control; reading: higher = more nuclear SOX9; quantity: nuclear SOX9 intensity
O=C(O)CCCC[C@@H]1SC[C@@H]2NC(=O)N[C@@H]21: 97.5 % of DMSO
O=C(Nc1cc(-c2ccccc2)nn1-c1ccccc1F)c1ccc([N+](=O)[O-])cc1: 95.1 % of DMSO
COc1cccc(CCc2ccccc2OCC(CN(C)C)OC(=O)CCC(=O)O)c1 (stereo not shown): 175 % of DMSO
Fc1ccc(Nc2nc(-c3ccccc3)cs2)cc1: 80.3 % of DMSO
COc1cc(SC)ccc1C(=O)N1CCC(Cc2ccccc2)CC1: 116 % of DMSO
Brc1c(Br)c(Br)c2n[nH]nc2c1Br: 105 % of DMSO
NC(=O)N1c2ccccc2CC(O)c2ccccc21 (stereo not shown): 96 % of DMSO
CC(C[N+](C)(C)C)OC(N)=O (stereo not shown): 89.8 % of DMSO

Study 2 — sample: 1,9-decadiene/PBS; pH: 7.4; quantity: logD
CC(C)C[C@@H]1NC(=O)[C@H](CC(C)C)NC(=O)[C@@H](C(C)C)NC(=O)[C@H](C(C)C)NC(=O)[C@H](C(C)C)NC(=O)[C@H](Cc2cscn2)NC(=O)[C@H](C)NC1=O: -1.45
CC(C)C[C@@H]1NC(=O)[C@H](Cc2cscn2)NC(=O)[C@H](Cc2cscn2)NC(=O)[C@H](CC(C)C)NC(=O)[C@@H](CCC(=O)N2CCCC2)NC(=O)[C@H](CC(C)C)NC(=O)[C@@H](CC(C)C)NC1=O: -0.802
CC(C)C[C@@H]1NC(=O)[C@H](Cc2cscn2)NC(=O)[C@H](C)NC(=O)[C@H](CC(C)C)NC(=O)[C@@H](CCC(=O)N2CCCC2)NC(=O)[C@H](CC(C)C)NC(=O)[C@@H](CC(C)C)NC1=O: -1.48
CC(C)C[C@@H]1NC(=O)[C@H](CC(C)C)NC(=O)[C@@H](CC(C)C)NC(=O)[C@H](C(C)C)NC(=O)[C@@H](CCC(=O)N2CCCC2)NC(=O)[C@H](Cc2cscn2)NC(=O)[C@H](C)NC1=O: -2.34
CC(C)C[C@@H]1NC(=O)[C@H](CC(C)C)NC(=O)[C@H](CC(C)C)NC(=O)[C@@H](C)NC(=O)[C@H](C(C)C)NC(=O)[C@H](Cc2cscn2)NC(=O)[C@H](C)NC1=O: -1.68
CC(C)C[C@@H]1NC(=O)[C@H](CC(C)C)NC(=O)[C@H](CC(C)C)NC(=O)[C@H](Cc2cscn2)NC(=O)[C@@H](CCC(=O)N2CCCC2)NC(=O)[C@H](Cc2cscn2)NC(=O)[C@H](C)NC1=O: -2.83
CC(C)C[C@@H]1NC(=O)[C@H](Cc2cscn2)NC(=O)[C@@H](CC(C)C)NC(=O)[C@@H](CCC(=O)N2CCCC2)NC(=O)[C@H](CC(C)C)NC(=O)[C@@H](CC(C)C)NC(=O)[C@H](CC(C)C)NC1=O: 0.317
CC(C)C[C@@H]1NC(=O)[C@H](C)NC(=O)[C@H](C)NC(=O)[C@H](CCC(=O)N2CCCC2)NC(=O)[C@H](CC(C)C)NC(=O)[C@H](CC(C)C)NC(=O)[C@@H](C(C)C)NC1=O: -2.96
CC(C)C[C@@H]1NC(=O)[C@H](C)NC(=O)[C@@H](CC(C)C)NC(=O)[C@H](C)NC(=O)[C@H](CC(C)C)NC(=O)[C@H](CC(C)C)NC(=O)[C@H](C)NC1=O: -1.3

Study 3 — Compound: COc1ccc(-c2cnc3c(-c4ccsc4)cnn3c2)cc1; effect on: enzyme activity; mode: inhibitor; concentration: 0.5 µM; baseline: control; quantity: remaining activity
MAP3K14 (Homo sapiens, UniProt Q99558): 106%
LCK (Homo sapiens, UniProt P06239): 81.6%
CSNK1G2 (Homo sapiens, UniProt P78368): 82.3%
FGFR3 (Homo sapiens, UniProt P22607): 81.5%
TEK (Homo sapiens, UniProt Q02763): 99.1%
JAK3 (Homo sapiens, UniProt P52333): 98.5%
ULK3 (Homo sapiens, UniProt Q6PHR2): 79.4%
TBK1 (Homo sapiens, UniProt Q9UHD2): 77.7%
MST1R (Homo sapiens, UniProt Q04912): 91.6%
MAP3K5 (Homo sapiens, UniProt Q99683): 105%
WEE1 (Homo sapiens, UniProt P30291): 102%
MAPKAPK2 (Homo sapiens, UniProt P49137): 95.8%
RPS6KA2 (Homo sapiens, UniProt Q15349): 87.5%
MERTK (Homo sapiens, UniProt Q12866): 81.2%

Study 4 — concentration: 1 µM; quantity: remaining binding
SMILES: COc1ccc2c(O[C@@H]3C[C@H]4C(=O)N[C@]5(C(=O)O)CC5/C=C\CCCCC[C@H](NC(=O)OC5CCCC5)C(=O)N4C3)cc(-c3csc(NC(=O)C(C)C)n3)nc2c1C (stereo partly shown)
Ribosomal protein S6 kinase alpha-4, N-terminal kinase domain (RPS6KA4, Homo sapiens, UniProt O75676); cell-free assay, competition with immobilised ligand: 96%
DYRK1B (Homo sapiens, UniProt Q9Y463); cell-free assay, competition with immobilised ligand: 74%
MAP3K1 (Homo sapiens, UniProt Q13233); cell-free assay, competition with immobilised ligand: 82%
WNK3 (Homo sapiens, UniProt Q9BYP7); cell-free assay, competition with immobilised ligand: 100%
CDK19 (Homo sapiens, UniProt Q9BWU1); competition binding: 90%
STK11 (Homo sapiens, UniProt Q15831); cell-free assay, competition with immobilised ligand: 100%
PIK3CA (Homo sapiens, UniProt P42336, Q546K); cell-free assay, competition with immobilised ligand: 70%
BMP2K (Homo sapiens, UniProt Q9NSY1); cell-free assay, competition with immobilised ligand: 90%
WEE1 (Homo sapiens, UniProt P30291); cell-free assay, competition with immobilised ligand: 100%

For quick reference, copied from above (study 3):
CSNK1G2 (Homo sapiens, UniProt P78368): 82.3%
FGFR3 (Homo sapiens, UniProt P22607): 81.5%
TEK (Homo sapiens, UniProt Q02763): 99.1%
